Assay results collected from several papers.
Numbered parts are unrelated; each lists some results of a single study. Positions count from the first letter of the parent shown.

Study 1
Target: HLF, bZIP domain (human)
Method: DHFR protein complementation
Medium: yeast
Notes: single substitutions, most at no-binding floor
Relative to: wild-type JUN-FOS pair
Direction: higher = stronger binding
Starting sequence: JUN, bZIP domain (human); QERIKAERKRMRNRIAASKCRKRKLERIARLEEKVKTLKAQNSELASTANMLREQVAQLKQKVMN; partner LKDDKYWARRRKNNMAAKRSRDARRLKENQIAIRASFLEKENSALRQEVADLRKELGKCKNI
| Change | binding fitness [natural log] |
| --- | --- |
| A46V | -1.44 |
| E32Y | -1.47 |
| R53L | -1.52 |
| L45V | -1.52 |
| I28D | -1.45 |
| A46M | -1.13 |
| K39A | -1.32 |
| K36W | -1.42 |
| A49Q | -1.35 |
| R53P | -1.56 |
| E32Q | -1.49 |
| L38D | -1.26 |
| A57Q | -1.39 |

Study 2
Target: CCND3, cyclin fold, Cln2 fusion (human)
Method: yeast growth competition, sequencing
Medium: yeast
Notes: weak parent motif
Relative to: not given
Direction: higher = stronger binding
Starting sequence: CDAN1 docking peptide (human); RGARSQLFPPTEA; partner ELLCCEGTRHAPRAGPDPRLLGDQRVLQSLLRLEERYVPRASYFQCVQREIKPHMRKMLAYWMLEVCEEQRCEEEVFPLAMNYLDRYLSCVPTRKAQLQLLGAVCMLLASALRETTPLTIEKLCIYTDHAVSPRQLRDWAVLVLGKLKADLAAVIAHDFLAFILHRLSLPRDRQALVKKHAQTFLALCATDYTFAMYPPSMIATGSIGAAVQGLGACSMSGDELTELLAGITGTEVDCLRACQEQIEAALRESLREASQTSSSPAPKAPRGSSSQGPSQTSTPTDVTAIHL
| Change | normalised enrichment score |
| --- | --- |
| R4A | 0.0814 |
| G2A | 0.107 |
| R1A | 0.0882 |
| T11A | 0.0882 |
| L7A | 0.196 |
| E12A | 0.342 |

Study 3
Target: ABI1, truncated, D143A, DHFR fusion (Arabidopsis thaliana)
Method: DHFR PCA, deep sequencing
Medium: yeast
Notes: methotrexate growth selection, single substitutions
Added: (+)-ABA 4.8 µM
Relative to: wild-type fitted maximum
Direction: higher = stronger binding
Starting sequence: PYL1, truncated, DHFR fusion (Arabidopsis thaliana); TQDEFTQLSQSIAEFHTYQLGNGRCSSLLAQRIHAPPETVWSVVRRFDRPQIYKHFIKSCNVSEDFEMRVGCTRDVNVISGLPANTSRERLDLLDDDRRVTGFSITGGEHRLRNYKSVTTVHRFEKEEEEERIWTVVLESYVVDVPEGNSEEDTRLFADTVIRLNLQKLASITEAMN; partner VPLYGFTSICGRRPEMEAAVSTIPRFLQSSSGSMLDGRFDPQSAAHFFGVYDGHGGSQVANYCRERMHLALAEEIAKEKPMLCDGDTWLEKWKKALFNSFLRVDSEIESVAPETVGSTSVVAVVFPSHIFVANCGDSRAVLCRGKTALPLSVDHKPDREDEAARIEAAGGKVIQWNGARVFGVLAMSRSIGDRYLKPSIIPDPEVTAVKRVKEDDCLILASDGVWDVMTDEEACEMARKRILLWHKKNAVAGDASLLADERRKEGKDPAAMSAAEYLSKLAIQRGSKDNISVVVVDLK
| Change | relative binding score |
| --- | --- |
| A30M | 81.4% |
| S42W | 15.1% |
| L82C | 19.9% |
| E67V | 78.2% |
| A35K | -27.1% |
| R69M | 61.8% |
| W41G | -4.98% |
| I162R | -9.45% |
| H122Y | 13.5% |
| N114A | 8.13% |
| I105N | -1.32% |
| T173V | 69.5% |
| I172G | 1.44% |
| R46I | -15.6% |
| I172K | 13.8% |
| V142I | 84.5% |
| E89D | 9.7% |
| R113G | 28.6% |
| R155D | -16.4% |
| I172C | 32.8% |
| I12T | 2.68% |

Study 4
Target: RING finger protein unkempt homolog, zinc fingers 1-6, GST-SBP tag (UNK, Homo sapiens, UniProt Q9C0B0, residues 30-357)
Method: RNA Bind-n-Seq
Form: RNA
Medium: in vitro
Concentration: not given
Notes: RNA with constant flanks, human and mouse sites, ends assumed
Relative to: input RNA pool
Direction: higher = stronger binding
All sequences stand within: GGGAGUUCUACAGUCCGACGAUC … CAACAGAGGAUUGAGCAUCA
Construct (chain): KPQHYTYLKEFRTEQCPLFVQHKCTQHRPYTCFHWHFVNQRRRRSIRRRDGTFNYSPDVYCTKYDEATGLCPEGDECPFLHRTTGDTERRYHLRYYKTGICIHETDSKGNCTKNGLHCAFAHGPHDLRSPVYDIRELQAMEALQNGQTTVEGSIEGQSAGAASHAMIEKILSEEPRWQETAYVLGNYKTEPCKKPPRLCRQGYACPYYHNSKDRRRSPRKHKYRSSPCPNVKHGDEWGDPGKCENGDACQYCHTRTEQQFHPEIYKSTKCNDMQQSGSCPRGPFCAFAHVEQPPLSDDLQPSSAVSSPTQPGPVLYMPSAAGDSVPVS
| Strand | bound/input enrichment [ratio] |
| --- | --- |
| AGACGAAGCUAUGGAGAUAUUUUGCAUAGAAUGAAGGAUCUCUGCAGAUACAUGAACAACUUUGAUAGUGAAGCACAUGCAAAAUAUAAAAACCAAGUGGUGUAUUCCACCAUGCUGGUC | 0.195 |
| CUGUUGUAUGAAAGGAGAGAAGGAUAACAAAUUGCGGUUUUCCCUGGUAAACACAGUAAGUAGUAAACUCAGGAUUCAAAACCAAAUAUACACACCAAAUCCACUAUGUAAUAUUAAGUU | 0.32 |
| UCCCUCGCCUGUGGUAAACCAACACAGCGGGUUCUUACAAAAGAACCCAAAUCAAAGGAAAUAGAAAAUGGUCAUAUAUUUACAGUUAAUGAUCAAUUCACAUCCAAACUACACAGAGUC | 0.246 |
| AUCCCAAACCAGCUGUGUAAAUGAGUAUGGAAGAUUAUGAUUUCCUGUUCAAAAUUGUUUUAAUUGGCAACGCUGGAGUGGGAAAGACGUGCCUAGUCCGAAGAUUCACUCAGGGUCUUU | 0.149 |
| UCAAAUAGAAAAGCACUUUCUUGUGUUCAUAUAACUCUUUGUCCCAAGACUUCUUCCAAGUUGGAUAGUGGAACUUUAGAUGAAAGAUUCCAUUCAUUGGAUGCUGCUUCUAAAGCGAGG | 0.483 |
| GCCUGGCUAGUGGAUCAUGUCUAUGCUAUCCGUGAGGCUGCCACCAGCAACCUUAAGAAAUUAGUAGAGAAGUUCGGGAAGGAGUGGGCCCAUGCCACUAUCAUCCCCAAGGUCUUAGCC | 0.178 |
| GGCAUGUUGGGUUUGCAGGACUGACCCACACAGUCUCUGCAGGUGGCAGCUCUCUUGUCUGUUUCUUGCUGUCGAGAGGGUGUAAGUGUUCCACCAGCCCGCUGAGUGUGCACGAAAUGU | 0.0838 |
| GGGAAGCAGUUUGACUCUCCCAUGCCAAGCCCCUUCCAUGGUGGAAGUUUCACUCUUCCCUUAGACACUAUGAAGAAUGAGAGAGUCUCAGAAGGACCACGACCCUUUGCCCCUGUCUUC | 0.655 |
| UCUGUUCGGAACCCCAGAGCACGAGUAGUAGUCUUAAGAGUAAAGCUUUCCAGUUUGAAUUUAGAUGAUCACGCAAAGAAGAAAUUAAUUAAACUUGUAGGAGAGCGAUACUGCAAGACC | 0.913 |
| GUAAAGCAUCCCUUCAUCGUGGAUUUAAUUUAUGCCUUUCAGACUGGUGGAAAACUCUACCUCAUCCUUGAGUAUCUCAGUGGAGGAGAACUAUUUAUGCAGUUAGAAAGAGAGGGAAUA | 0.231 |
| GCUCAGGAUUCUUUUAAAGGUACAAGGAUAGGUGUGAGGAUUUAUUUUUGGUUAUAUUUGAACUGUAUGAAUGGUGGGUCUGAAAACAGAGUAUUUCACGGUCUAGUGAGGAGGUAAACU | 0.39 |

Study 5
Target: RNA binding protein fox-1 homolog 2, RRM domain, GST-SBP tag (RBFOX2, Homo sapiens, UniProt O43251-10, residues 100-194)
Method: RNA Bind-n-Seq
Form: RNA
Medium: in vitro
Concentration: 365 nM
Notes: natural RNA segment, single round, ends assumed
Relative to: no-protein control
Direction: higher = stronger binding
All sequences stand within: GGGAGUUCUACAGUCCGACGAUC … UGGAAUUCUCGGGUGCCAA
Target sequence (chain): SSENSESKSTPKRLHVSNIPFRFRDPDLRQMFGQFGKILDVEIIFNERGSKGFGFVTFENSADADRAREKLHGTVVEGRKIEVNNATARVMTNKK
| Strand | RBNS enrichment (R) |
| --- | --- |
| UUAAAAUGUAUUUUCACAACCCCAGUGGCUGUGGCCAAAUGAGUCCUCAUUGAACACGAGAUGGAGCUAGGAAUGCACGUGGGGCUGUGAACUGGAUGCACUGGCCAUAG | 4.2 |
| GUGCCCUACGCCUCACUGCUGGGGCCCUGGACCCAGACCCAGGCAGGAGGGCCGACGGGUGCCUCGGUCGCUCUGGGGGCAGUUUAGAUGCUGUGAAAUUAAACCCGUUC | 0.366 |
| GGAGGGUGCUUAGCUCCAGAGCAGGAUGGGACUUCCCCAGGCAGGAAGCACUUGAUGGAGAGCUGCCCAGCUCUCCUACAAGGUUAGUGCCCUCCACCUAGGGAAGCAUG | 0.606 |
| CUGCUUCUGAGUUGCCCAGGAGACCACUGGCAGAUGUCCCGGCGAAGAGAAGAGACACAUUGUUGGAAGAAGCAGCCCAUGACAGCUCCCCUUCCUGGGACUCGCCCUCA | 0.506 |
| GCAAGUACACACUUCCACGGAAUCAUACAUUGGUUCAUCUUCUGAGAGCGCACAAUAGCUACUGAACAAGCUGUGACUGAACUGUACAUAGACCUGAGAGGAGCAGAGAA | 0.406 |
| GAGGCACGUGAUCAGUGUUGCAACAUAAUGAAAAAGAUGGCUACUGUGCCUUGUGUUACUUAAUCAUACAGUAAGCUGACCUGGAAAUGAAUGAAACUAUUACUCCUAAG | 1.76 |
| UGGCAGUUUGGACAGGGGUGACUGUUCACACGUAUGGACAGGCCUCGCCUGGGGAGUAAGGCCACCAACCAAAGUCAGUUCCUUCCCACCUGUGUUUCUGAUUUUGUUUU | 0.656 |
| CAUUUUCACUAAGAGUUUAAAAGCUAUUGUAUUAUUAAAAAGUCUUUACAAUGCUUGUUUCAAAGAACCAACAGAAAAAAAAGCUAAGAAAACUGAGAACUAACAUUAAA | 0.404 |
| UAAUUCUAUAGAGAAUUCUUGCCUCCCAUUCAGGACUGGCCUUCUAUACAGUGAGAUGGUCCAGUAAGAAAUAAUUUUUAUUAGUGUUUUUUCUAUUUUGAGAAUUAUUU | 0.958 |
| CCACGUUGAGUGAAGCUCAUCCCAAGCAAGGAGCCCCAGUCUCCCGAGCGGGUAGGAGAGUUUCUUGCAGAACGUGUUUUUUCUUUACACACAUUAUGGCUGUAAAUACC | 0.353 |
| UUUGUUUGUUUGUUUGUUUGUUUGUUUGUUUUUUCCAGACAGGAUUUCUCUGUGUAGCCCUGGCCGUCCUGGAACUCACUUUGUAGAUCAGGCUGGCCUCGAACUCAGAA | 31.9 |
| UAGGAGGUAUAAUAUAUAUUUCUUGAGUAAUAAUGUGGUUACGGAAUUCCAAUGUUAUAGUGAAGUGUAAUGAAAAACAUCUCUAGGAAUGUGCUUUAACCACUGCUGCA | 1.63 |

Repeated from above (study 3):
| Change | relative binding score |
| --- | --- |
| S42W | 15.1% |
| L82C | 19.9% |
| E67V | 78.2% |
| A35K | -27.1% |
| R69M | 61.8% |
| W41G | -4.98% |
| I162R | -9.45% |
